Experimental data pooled from the literature.
Protocols differ between the studies behind these lines.
Organism: Escherichia coli

CC[C@H](C)[C@H](NC(=O)[C@H](C)NC(=O)[C@H](CCCCN)NC(=O)[C@H](CCCNC(=N)N)NC(=O)[C@H](CCCCN)NC(=O)[C@H](CCCNC(=N)N)NC(=O)[C@H](CCCCN)NC(=O)[C@@H](N)CCCNC(=N)N)C(=O)N[C@@H](CO)C(=O)NCC(=O)N[C@@H](CO)C(=O)N[C@@H](CC(C)C)C(=O)N[C@H](C(=O)N[C@H](C(=O)N[C@@H](CC(C)C)C(=O)N[C@@H](Cc1ccccc1)C(=O)NCC(=O)N[C@@H](Cc1ccc(O)cc1)C(N)=O)[C@@H](C)O)C(C)C  MIC (broth microdilution; ATCC 25922; highest value reported): 8 µM
Cn1c(=O)ccc2ccc(F)c(CCNC[C@H]3CN(c4ccc5c(n4)NC(=O)CO5)C(=O)O3)c21  MIC (ATCC 25922): 0.015 µg/mL
CC1(C)CC[C@]2(C(=O)O)CC[C@]3(C)C(=CC[C@@H]4[C@@]5(C)CC[C@H](O)C(C)(C)[C@@H]5CC[C@]43C)[C@@H]2C1  MIC (BL21 pET28a-VIM-1): 512 µg/mL
CC[C@H](C)[C@H](NC(=O)CN)C(=O)N[C@@H](CC(C)C)C(=O)N[C@@H](CC(=O)O)C(=O)N[C@@H](C)C(=O)N[C@H](C(=O)N[C@@H](CCCCN)C(=O)N[C@@H](C)C(=O)N[C@H](C(=O)N[C@@H](C)C(=O)N[C@@H](CCCCN)C(=O)N[C@@H](C)C(=O)N[C@H](C(=O)N[C@@H](CCCCN)C(=O)N[C@@H](C)C(=O)N[C@@H](CCCCN)C(=O)N[C@@H](C)C(=O)NCC(N)=O)[C@@H](C)CC)[C@@H](C)CC)[C@@H](C)CC  MIC (ATCC 25922, Mueller-Hinton broth; 12 h, 37 °C): 8 µg/mL
O=C(O)c1cccc(C(=O)O)n1  MIC (ATCC 25922, no carbapenemase; 32 µg/mL, MIC of meropenem, added: meropenem): ≤ 0.0625 µg/mL
C[C@@H](O)[C@H]1C(=O)N2C(C(=O)O)=C(SCCN=CN)C[C@H]12  MIC (DH5a clone with KPC-100): 1 µg/mL
CC[C@H](C)[C@H](NC(=O)CNC(=O)[C@H](CC(=O)O)NC(=O)[C@H](CCCNC(=N)N)NC(=O)[C@@H](NC(=O)[C@H](CC(N)=O)NC(=O)[C@H](CCCNC(=N)N)NC(=O)CNC(=O)[C@@H](NC(=O)[C@H](CCCCN)NC(=O)[C@H](CCC(=O)O)NC(=O)[C@@H](NC(=O)[C@H](CCCCN)NC(=O)[C@H](CCC(=O)O)NC(=O)[C@H](Cc1ccccc1)NC(=O)[C@@H](NC(=O)[C@H](CCCCN)NC(=O)[C@H](Cc1c[nH]c2ccccc12)NC(=O)[C@@H](N)CCCNC(=N)N)[C@@H](C)CC)[C@@H](C)CC)C(C)C)C(C)C)C(=O)N[C@H](C(=O)N[C@@H](CCCCN)C(=O)N[C@@H](C)C(=O)NCC(=O)N1CCC[C@H]1C(=O)N[C@@H](C)C(=O)N[C@H](C(=O)N[C@@H](C)C(=O)N[C@H](C(=O)N[C@H](C(=O)NCC(=O)N[C@@H](CCC(N)=O)C(=O)N[C@@H](C)C(=O)N[C@@H](C)C(=O)N[C@H](C(=O)N[C@H](C(=O)N[C@H](C(=O)N[C@@H](CCCCN)C(N)=O)C(C)C)C(C)C)[C@@H](C)O)C(C)C)C(C)C)C(C)C)[C@@H](C)CC  MIC (K1 ATCC 700973, Mueller-Hinton broth; 16 h, 37 °C; growth inhibition over 99%): 32 µM
CC[C@H](C)[C@H](N)C(=O)N[C@@H](CCCNC(=N)N)C(=O)N[C@H](C(=O)N[C@@H](Cc1c[nH]c2ccccc12)C(=O)N[C@@H](CCCCN)C(=O)N[C@@H](CCCCN)C(=O)N[C@@H](Cc1ccccc1)C(=O)N[C@H](C(=O)N[C@@H](CCCNC(=N)N)C(=O)N[C@@H](CCCCN)C(=O)N[C@@H](CCSC)C(=O)N[C@@H](CCCCN)C(=O)N[C@@H](C)C(=O)N[C@H](C(=O)N[C@@H](Cc1ccc(O)cc1)C(=O)N[C@@H](Cc1c[nH]cn1)C(N)=O)[C@@H](C)CC)C(C)C)C(C)C  MIC (broth dilution; ATCC 25922, Mueller-Hinton broth; 24 h, 37 °C): 50 µM
CC1(C)SC2C(NC(=O)C(NC(=O)C3=C(O)C(Cc4ccccc4)NC3=O)c3ccccc3)C(=O)N2C1C(=O)O (stereo not drawn)  MIC (broth microdilution; isolate IU, CTX-M-14, TEM-1; added: clavulanic acid 6 µg/mL): 100 µg/mL
CC[C@H](C)[C@H](NC(=O)CNC(=O)[C@H](CC(=O)O)NC(=O)[C@H](CCCNC(=N)N)NC(=O)[C@@H](NC(=O)[C@H](CC(N)=O)NC(=O)[C@H](CCCNC(=N)N)NC(=O)CNC(=O)[C@@H](NC(=O)[C@H](CCCCN)NC(=O)[C@H](CCC(=O)O)NC(=O)[C@@H](NC(=O)[C@H](CCCCN)NC(=O)[C@H](CCCCN)NC(=O)[C@H](Cc1ccccc1)NC(=O)[C@@H](NC(=O)[C@H](CCCCN)NC(=O)[C@H](Cc1c[nH]c2ccccc12)NC(=O)[C@@H](N)CCCNC(=N)N)[C@@H](C)CC)[C@@H](C)CC)C(C)C)C(C)C)C(=O)N[C@H](C(=O)N[C@@H](CCCCN)C(=O)N[C@@H](C)C(N)=O)[C@@H](C)CC  MIC (K1 ATCC 700973, Mueller-Hinton broth; 16 h, 37 °C; growth inhibition over 99%): 16 µM
C[C@H]1COCCN1c1nc(NCc2cccnc2C(F)(F)F)c2cccnc2n1  MIC (broth microdilution; 77): 128 µg/mL
CC[C@H](C)[C@H](NC(=O)[C@H](CCCNC(=N)N)NC(=O)[C@H](CO)NC(=O)[C@H](Cc1ccc(O)cc1)NC(=O)[C@@H](NC(=O)[C@@H](NC(=O)[C@H](C)NC(=O)CNC(=O)[C@H](CCCCN)NC(=O)[C@@H](N)CCCCN)C(C)C)[C@@H](C)O)C(=O)N[C@@H](CO)C(=O)NCC(=O)N[C@@H](CCC(N)=O)C(=O)N[C@@H](Cc1ccc(O)cc1)C(=O)N[C@@H](CCCCN)C(=O)O  MIC (broth microdilution; ATCC 25922, Mueller-Hinton broth; 16 to 18 h, 37 °C): > 96 µM
CC[C@H](C)[C@H](NC(=O)CN)C(=O)NCC(=O)N[C@@H](CCCCN)C(=O)N[C@@H](Cc1ccccc1)C(=O)N[C@@H](CC(C)C)C(=O)N[C@@H](Cc1c[nH]cn1)C(=O)N[C@@H](CO)C(=O)N[C@@H](C)C(=O)N[C@@H](CCCCN)C(=O)N[C@@H](CCCCN)C(=O)N[C@@H](Cc1ccccc1)C(=O)NCC(=O)N[C@@H](CCCCN)C(=O)N[C@@H](C)C(=O)N[C@@H](Cc1ccccc1)C(=O)N[C@H](C(=O)NCC(=O)N[C@@H](CCC(=O)O)C(=O)N[C@H](C(=O)N[C@@H](CCSC)C(=O)N[C@@H](CC(N)=O)C(=O)N[C@@H](CO)C(=O)O)[C@@H](C)CC)C(C)C  MIC (broth dilution; K12 BW25113; 18 h, 37 °C): 38 µM
Cc1ccc2[nH]c3c(c2c1)CCCC3NCCc1ccc(Br)cc1 (stereo not drawn)  MIC (broth microdilution; O-19592): > 128 µg/mL
COc1c(N2CC3CCCNC3C2)c(F)cc2c(=O)c(C(=O)OCc3cnc([N+](=O)[O-])s3)cn(C3CC3)c12 (stereo not drawn)  MIC (NR 17661, fluoroquinolone-resistant): > 97 µM
C[C@@H](O)[C@H]1C(=O)N2C(C(=O)O)=C(S[C@@H]3CN[C@H](C(=O)N(C)C)C3)[C@H](C)[C@H]12  MIC (BL21(DE3) wild type): < 0.09 µg/mL
CC1(C)SC2C(NC(=O)C(NC(=O)C3=C(O)C4CCCN4C3=O)c3ccccc3)C(=O)N2C1C(=O)O (stereo not drawn)  MIC (broth microdilution; ATCC 35218, low-level TEM-1; no clavulanic acid): > 200 µg/mL
CC[C@H](C)[C@H](NC(=O)[C@H](C)NC(=O)[C@@H]1CCCN1C(=O)[C@@H](NC(=O)[C@@H](NC(=O)[C@H](CS)NC(=O)[C@@H]1CCCN1C(=O)[C@H](CCC(=O)O)NC(=O)[C@@H]1CCCN1C(=O)[C@@H]1CCCN1C(=O)[C@@H](NC(=O)[C@@H](N)CCC(N)=O)C(C)C)[C@@H](C)O)[C@@H](C)CC)C(=O)N[C@H](C(=O)N[C@H](C(=O)N[C@@H](CCCCN)C(=O)N[C@H](C(=O)N[C@@H](CCC(N)=O)C(=O)N[C@@H](CCCNC(=N)N)C(=O)N[C@@H](CCCNC(=N)N)C(=O)N[C@@H](CCCNC(=N)N)C(=O)NCC(=O)N[C@@H](Cc1ccc(O)cc1)C(=O)N[C@H](C(=O)N[C@H](C(=O)N[C@@H](CO)C(=O)N[C@@H](CCCCN)C(=O)N[C@@H](CCCNC(=N)N)C(=O)N[C@@H](CCCNC(=N)N)C(=O)N[C@H](C(=O)N[C@@H](Cc1ccccc1)C(=O)O)C(C)C)[C@@H](C)CC)[C@@H](C)CC)[C@@H](C)CC)C(C)C)[C@@H](C)CC  MIC (broth microdilution; K88, Mueller-Hinton broth; 37 °C): 9.94 µM
CC[C@H](C)[C@H](N)C(=O)N[C@@H](CC(C)C)C(=O)NCC(=O)N[C@H](CCCNC(=N)N)C(=O)N[C@H](C(=O)N[C@H](C(=O)N[C@@H](CCCCN)C(=O)NCC(=O)N[C@H](C(=O)N[C@@H](CCCCN)C(=O)N[C@@H](CC(=O)O)C(=O)N[C@H](C(=O)N[C@@H](CC(C)C)C(N)=O)[C@@H](C)CC)[C@@H](C)CC)C(C)C)[C@@H](C)CC  MIC (broth microdilution; ATCC 25922, Mueller-Hinton broth; 16 h, 37 °C): 25 µM
CC[C@H](C)[C@H](NC(=O)CN)C(=O)NCC(=O)N[C@@H](C)C(=O)N[C@H](C(=O)N[C@@H](CC(C)C)C(=O)N[C@@H](CCCCN)C(=O)N[C@H](C(=O)N[C@@H](CC(C)C)C(=O)N[C@H](C(=O)N[C@H](C(=O)NCC(=O)N[C@@H](CC(C)C)C(=O)N1CCC[C@H]1C(=O)N[C@@H](C)C(=O)N[C@@H](CC(C)C)C(=O)N[C@H](C(=O)N[C@@H](CO)C(=O)N[C@@H](Cc1c[nH]c2ccccc12)C(=O)N[C@H](C(=O)N[C@@H](CCCCN)C(=O)N[C@@H](CCCNC(=N)N)C(=O)N[C@@H](CCCCN)C(=O)N[C@@H](CCCNC(=N)N)C(=O)N[C@@H](CCC(N)=O)C(=O)N[C@@H](CCC(N)=O)C(N)=O)[C@@H](C)CC)[C@@H](C)CC)[C@@H](C)O)[C@@H](C)O)C(C)C)C(C)C  MIC (K1 ATCC 700973; 16 h, 37 °C, Mueller-Hinton broth): 8 µM
CC(C)C[C@@H](NC(=O)CNC(=O)[C@@H](CCCCN)NC(=O)[C@@H](CC(C)C)NC(=O)[C@@H](CCCCN)NC(=O)[C@@H](CCCNC(=N)N)NC(=O)[C@@H](CC(C)C)NC(=O)[C@@H](CC(C)C)NC(=O)[C@@H](CCCNC(=N)N)NC(=O)[C@H](N)CCCNC(=N)N)C(=O)N[C@H](CCCCN)C(=O)N[C@H](CCCCN)C(=O)N[C@H](Cc1ccc(O)cc1)C(=O)N[C@H](CC(C)C)C(=O)N[C@H](Cc1ccc(O)cc1)C(=O)N[C@H](Cc1ccccc1)C(=O)N[C@H](CCCCN)C(=O)N[C@H](CC(C)C)C(=O)N[C@H](CCC(N)=O)C(=O)N[C@H](CC(C)C)C(=O)N[C@H](CC(C)C)C(=O)N[C@H](CCCCN)C(=O)N[C@H](CCCCN)C(N)=O  MIC (KCTC 1682, Mueller-Hinton broth; added: 1 mM MgCl2): 8 µM
